Measurements pooled from the literature.
± marks the error that the study gave.
Neuronal acetylcholine receptor; alpha9/alpha10: Neuronal acetylcholine receptor; alpha9/alpha10 (Homo sapiens, UniProt Q9GZZ6+Q9UGM1)
cas9: CRISPR-associated endonuclease Cas9/Csn1 (cas9, Streptococcus pyogenes serotype M1, UniProt Q99ZW2)
ACHE: Acetylcholinesterase (ACHE, Homo sapiens, UniProt P22303)
Protein kinase 6: Protein kinase 6 (Plasmodium falciparum, UniProt Q8IDW1)
HLA class I histocompatibility antigen, B alpha chain: HLA class I histocompatibility antigen, B alpha chain (Homo sapiens, UniProt P01889)

CCCCCCCCOc1ccccc1C(=O)Nc1ccc(C(=O)OCC[N+](C)(CC)CC)cc1 has an IC50 of 0.045 ± 0.002 µM (Neuronal acetylcholine receptor; alpha9/alpha10; inhibitor).
With OC(CN1CCNCC1)Cn1c2ccccc2c2ccccc21 (stereo not shown) the IC50 was 21 µM (BAX (Homo sapiens, UniProt Q07812); membrane permeabilization, inhibitor, liposome release; 400 nM BAX, with: 30 nM tBID).
The IC50 of CCN(CC)C(=O)N[C@@H]1C[C@@H]2c3cccc4[nH]cc(c34)C[C@H]2N(C)C1 is reported as over 30 µM (Beta-lactamase TEM (bla, Escherichia coli, UniProt P62593); inhibitor).
For Nc1ccccc1, the IC50 was 51 µM (Cytochrome P450 2E1 (CYP2E1, Homo sapiens, UniProt P05181); enzyme activity, inhibitor; 30 min, pH 7.4).
The IC50 of O=c1c2cc(Cl)ccc2[nH]c(=S)n1Cc1ccc(-c2nnn[nH]2)nc1 is reported as 0.15 µM (Potassium voltage-gated channel subfamily KQT member 1, with KCNE1 (KCNQ1, Homo sapiens, UniProt P51787); KCNQ1/minK current, inhibitor, manual patch clamp; CHO cells).
With OCc1cc(C(O)CNCCCCCCOCCCCc2ccccc2)ccc1O (stereo not shown) the IC50 was 13.3 µM (ADRA2B (Homo sapiens, UniProt P18089); inhibitor).
With CCOC(=O)c1c(NCc2ccc(SC)cc2)c2cccc(C)c2[nH]c1=O the IC50 was 1.64 ± 0.2 µM (Anoctamin-6 (ANO6, Homo sapiens, UniProt Q4KMQ2); anion channel activity, inhibitor, YFP fluorescence quenching; FRT cells expressing ANO6).
CNC(C)Cc1ccc2n[se]nc2c1 (stereo not shown) gave an IC50 of 16.4 ± 2.8 µM (SLC22A1 (Homo sapiens, UniProt O15245)).
The IC50 of CCCCCCCCCCCCCCCCC(C(=O)O)C(O)(CC(=O)O)C(=O)O (stereo not shown) is reported as about 50 µM (cas9; circular plasmid substrate; Streptococcus pyogenes).
With COc1cccc(C2c3ccc(OS(=O)(=O)c4ccc(C)cc4)cc3Oc3nc4c(c(N)c32)CCCC4)c1 (stereo not shown) the IC50 was 2.62 µM (ACHE; enzyme activity, inhibitor).
COc1cc(Nc2ncc(F)c(Nc3ccc4c(n3)NC(=O)C(C)(C)O4)n2)cc(OC)c1OC gave an IC50 of over 10 µM (OPRD1 (Homo sapiens, UniProt P41143)).
With NCc1ccc(S(N)(=O)=O)cc1 the IC50 was 16.1 µM (Gag polyprotein, nucleocapsid protein p7 (gag, Human immunodeficiency virus type 1 group M subtype B, UniProt P04591); NCp7-RNA binding, AlphaScreen; HIV-1; with: 25 nM NCp7, 12.5 nM RNA).
The IC50 of Nc1c2c(nc3c1C(c1cccc(Br)c1)c1ccc(O)cc1O3)CCCC2 (stereo not shown) is reported as 3.49 µM (ACHE; enzyme activity, inhibitor).
[O]=[V]([OH])([OH])[OH] has an IC50 of 58 µM (Uncharacterized protein (Trypanosoma brucei, UniProt Q38AT7)).
CNCC[C@H](Oc1cccc2ccccc12)c1cccs1 has an IC50 of 1.08 ± 0.41 µM (Neuronal acetylcholine receptor; alpha9/alpha10; inhibitor).
The IC50 of O=C(O)c1cccc(C(=O)O)n1 is reported as 21200 µM (dapA (Escherichia coli K-12, UniProt P0A6L2); enzyme activity, inhibitor; 37 °C).
With COc1ccc(S(=O)(=O)Oc2ccc3c(c2)Oc2nc4c(c(N)c2C3c2cccc(Br)c2)CCCC4)cc1 (stereo not shown) the IC50 was 0.731 µM (ACHE; enzyme activity, inhibitor).
With COc1cccc2c1C(=O)c1c(O)c3c(c(O)c1C2=O)C[C@@](O)(C(=O)CO)C[C@@H]3O[C@H]1C[C@H](N)[C@H](O)[C@H](C)O1 the IC50 was 10 to 20 µM (cas9; circular plasmid substrate; Streptococcus pyogenes).
The IC50 of C[C@H]1CN(c2n[nH]c3nc(N[C@H]4CC[C@H](NS(=O)(=O)CCC(F)(F)F)CC4)ncc23)CCO1 is reported as at least 20 µM (TNF receptor-associated factor 2 (Homo sapiens, UniProt Q12933); biochemical).
CNC(=O)Oc1cccc2c1OC(C)(C)C2 gave an IC50 of 0.006 µM (Acetylcholinesterase (Rhipicephalus microplus, UniProt O45210, W384F)).
The IC50 of CCCCCCCCCCCCCCCC(=O)OC[C@H](O)[C@H]1OC(=O)C(O)=C1O is reported as 8 ± 1 µM (Hyaluronate lyase (hylB, Streptococcus agalactiae serotype III, UniProt Q53591); enzyme activity).
With CCN1CCN(Cc2ccc(Nc3nc4ccc(Oc5ccnc(NC(=O)C6CCN(C)CC6)c5)cc4n3C)cc2C(F)(F)F)CC1 the IC50 was 0.004 µM (Protein kinase 6; inhibitor, KinaseSeeker split luciferase).
For CSCC[C@H](NC(=O)[C@H](Cc1ccc(O)cc1)NC(=O)[C@H](CC(C)C)NC(=O)[C@H](CCSC)NC(=O)[C@H](CO)NC(=O)CNC(=O)[C@H](CC(C)C)NC(=O)[C@H](CC(C)C)NC(=O)[C@@H](N)CCSC)C(=O)O, the IC50 was over 70 µM (HLA class I histocompatibility antigen, B alpha chain; peptide-MHC binding, radioligand competition binding).
CCN1CCN(Cc2ccc(Nc3nc4cc(Oc5ccnc(NC(=O)C6CCN(C)CC6)c5)ccc4n3C)cc2C(F)(F)F)CC1 has an IC50 of 1.7 ± 0.5 µM (Protein kinase 6; enzyme activity, inhibitor).
The IC50 of Cc1cc(-c2ccc(/N=N/c3ccc4c(S(=O)(=O)O)cc(S(=O)(=O)O)c(N)c4c3O)c(C)c2)ccc1/N=N/c1ccc2c(S(=O)(=O)O)cc(S(=O)(=O)O)c(N)c2c1O is reported as 20 to 50 µM (cas9; circular plasmid substrate; Streptococcus pyogenes).
CC(C)C[C@H](NC(=O)[C@H](CCC(N)=O)NC(=O)[C@H](Cc1ccccc1)NC(=O)[C@H](C)NC(=O)[C@H](CCCCN)NC(=O)[C@H](CC(=O)O)NC(=O)[C@H](CCC(=O)O)NC(=O)[C@H](CC(C)C)NC(=O)[C@@H](N)CO)C(=O)O has an IC50 of over 70 µM (HLA class I histocompatibility antigen, B alpha chain, allele B*18:01 (Homo sapiens, UniProt P01889); peptide-MHC binding, radioligand competition binding).
O=C1c2c(O)ccc(O)c2C(=O)c2c(NCCNCCO)ccc(NCCNCCO)c21 has an IC50 of 20 to 50 µM (cas9; circular plasmid substrate; Streptococcus pyogenes).
CC[C@H](C)[C@H](NC(=O)[C@H](CCCCN)NC(=O)[C@H](Cc1ccccc1)NC(=O)[C@H](Cc1ccc(O)cc1)NC(=O)CNC(=O)[C@H](CC(=O)O)NC(=O)[C@@H](NC(=O)[C@H](CC(N)=O)NC(=O)[C@@H](N)CCCCN)[C@@H](C)CC)C(=O)N[C@@H](Cc1ccc(O)cc1)C(=O)O has an IC50 of over 70 µM (HLA class I histocompatibility antigen, B alpha chain; peptide-MHC binding, radioligand competition binding).
